Published values collected from several papers.
Compare with care: the assays were run in different laboratories. ± gives the spread as reported. Converted amounts (≈) assume the structure as drawn.

| Compound | organism | assay | system | conditions | scale | quantity | result |
| --- | --- | --- | --- | --- | --- | --- | --- |
| COc1ccc(-n2c(=O)c(C(=O)C3C(=O)CCCC3=O)nc3c(F)cccc32)cc1 | Schoenoplectus juncoides | herbicidal activity, paddy pot test, visual rating |  | 28 days |  | ED90 | 6.3 g a.i./10 a |
| Cc1ccc(S(=O)(=O)N(CCc2nnc(S)o2)c2ccc(Cl)cc2)cc1 | Aspergillus niger | cup plate method |  | 100 µg/mL | baseline: fluconazole | relative inhibition | 48.5% |
| Cc1cccc2c1N(C(=O)n1ccnn1)CC2 | Arabidopsis thaliana |  | wild type | solo treatment |  | hypocotyl elongation inhibition | > 30 µM |
| CC1(C)CCCc2cc3c(cc21)C(=O)C=CC3=O | Leishmania infantum |  | intracellular amastigotes, ex vivo mouse splenic explants |  | baseline: HepG2 CC50 over amastigote EC50 | selectivity index | 0.58 |
| CNC(CC(C)C)C(=O)NC1C(=O)NC(CC(N)=O)C(=O)NC2C(=O)NC3C(=O)NC(C(=O)NC(C(=O)NCCCNC(=N)N)c4cc(O)cc(O)c4-c4cc3ccc4O)C(O)c3ccc(c(Cl)c3)Oc3cc2cc(c3OC2OC(CO)C(O)C(O)C2OC2CC(C)(NCc3ccc(-c4ccc(Cl)cc4)cc3)C(O)C(C)O2)Oc2ccc(cc2Cl)C1O (stereo not drawn) | Enterococcus faecalis and Enterococcus faecium |  | VanA, 4 strains |  | baseline: vancomycin over cpd MIC | potency improvement | ~1000 fold |
| CCCCn1c2ccccc2c2ccnc(-c3ccccc3Cl)c21 | Echinococcus granulosus sensu stricto |  | protoscoleces | 200 µM, 48 h |  | killed protoscoleces | > 90% |
| N=C(N)NCCC[C@@H]1NC(=O)[C@H](CCCNC(=N)N)NC(=O)[C@H](CCCNC(=N)N)NC(=O)[C@H](Cc2ccc3ccccc3c2)NC(=O)[C@H](Cc2c[nH]c3ccccc23)NC(=O)[C@H](Cc2ccc3ccccc3c2)NC(=O)[C@H](CCCNC(=N)N)NC1=O | Aspergillus fumigatus | XTT | Af-293 | MIC |  | biofilm mass reduction | 31 to 36% |
| C[C@@H](c1ccn(Cc2cc(F)c(F)c(F)c2)n1)[C@](O)(Cn1cnnn1)c1ccc(F)cc1F | Aspergillus fumigatus | growth, broth microdilution | 7544 | 48 h, 35 °C, ≥50% inhibition |  | MIC | > 64 mg/L |
| Cc1ncc([N+](=O)[O-])n1CCOCc1nnc(SCC(=O)c2ccc([N+](=O)[O-])cc2)o1 | Serratia marcescens |  | DMSO | 60 µg/mL, 24 h, 37 °C |  | inhibition zone diameter | 10 to 15 mm |
| CC(C)C[C@@H]1NC(=O)[C@H](CCCCN)NC(=O)[C@H](C(C)C)NC(=O)[C@@H]2CCCN2C(=O)[C@@H](Cc2ccc(O)cc2)NC(=O)[C@H](CC(C)C)NC(=O)[C@H](CCCCN)NC(=O)[C@H](C(C)C)NC(=O)[C@H](CCCCN)NC(=O)[C@@H]2CCCN2C(=O)[C@@H](Cc2ccc(O)cc2)NC(=O)[C@H](CCCCN)NC1=O | fungi |  |  | 24 h, 2 strains |  | MIC geometric mean | 45.2 mg/L (≈ 31 µM) |
| CC(=O)[O-].O.O.O.O.[Ni+2].[O-]c1ccc(Br)cc1C=NCCN1CCOCC1 | Aspergillus niger |  |  | 20 µL of 100 µM per disc |  | inhibition zone diameter | 28 mm |
| COc1ccc(-c2nc(-c3ccccc3OC)[nH]c2-c2ccc(OC)cc2)cc1 | Schistosoma mansoni |  | mature male and female worms | 25 µM, 96 h |  | worm killing | 0% |
| Oc1c(Br)cc(Br)c2nc3c(C(F)(F)F)cc(C(F)(F)F)cc3nc12 | Staphylococcus aureus | Calgary biofilm device | MRSA ATCC BAA-44, biofilm-released planktonic cells | 24 h, 37 °C |  | MBC | 0.3 µM (≈ 0.147 µg/mL) |
| O=[N+]([O-])c1ccc(/C=N/N=C/c2ccc([N+](=O)[O-])o2)cc1 | Trypanosoma equiperdum | parasite growth, CellTiter-Glo | IVM-t1 bloodstream form | 72 h |  | IC50 | 1.24 ± 0.46 µM |
| CC(C)C[C@@H]1NC(=O)[C@H](CCCCN)NC(=O)[C@@H]2CCCN2C(=O)[C@@H](Cc2ccc(O)cc2)NC(=O)[C@H](CCCCN)NC(=O)[C@H](C(C)C)NC(=O)[C@H](CC(C)C)NC(=O)[C@H](CCCCN)NC(=O)[C@H](C(C)C)NC(=O)[C@@H]2CCCN2C(=O)[C@@H](Cc2ccc(O)cc2)NC(=O)[C@H](CC(C)C)NC(=O)[C@H](CCCCN)NC(=O)[C@H](C(C)C)NC(=O)[C@H](CCCCN)NC1=O | fungi |  |  | 24 h, 2 strains |  | MIC geometric mean | 22.6 mg/L (≈ 12.6 µM) |
| C=C(C)[C@@H]1CCC=C2CC[C@]3(C)[C@H](CC[C@@H]4[C@@]5(C)CCCNC(C)(C)[C@@H]5CC[C@]43C)[C@H]21 | Human papillomavirus 11 | viral replication, luciferase reporter | C-33 A |  |  | EC90 | > 1.2 µM |
| Fc1ccc2c(c1)c1nc3ccc(Br)cc3c-1cn2Cc1cn(-c2ccccc2I)nn1 | Giardia duodenalis trophozoites | UHPLC-Q-TOF-MS, item: LysoPE(0:0/18:0) |  | IC50, 0.1742 h | baseline: 0.25% DMSO | fold change | 3.22 |
| CCNC1=C(Cl)C(=O)c2cc3c(cc2C1=O)CCCC3(C)C | Leishmania infantum |  | intracellular amastigotes, ex vivo mouse splenic explants |  | baseline: HepG2 CC50 over amastigote EC50 | selectivity index | > 3 |

| Compound | organism | assay | system | conditions | scale | quantity | result |
| --- | --- | --- | --- | --- | --- | --- | --- |
| C#CCn1c2ccc([N+](=O)[O-])cc2c(=O)n1Cc1ccccc1 | Leishmania amazonensis | parasite growth, resazurin |  | 72 h, promastigote |  | IC50 | 0.9 µM |
| Cc1ccc(N(CCc2nnc(S)o2)S(=O)(=O)c2ccc(C)cc2)cc1 | Aspergillus niger | cup plate method |  | 100 µg/mL | baseline: fluconazole | relative inhibition | 78.8% |
| CCn1ccc([C@H](C)[C@](O)(Cn2cnnn2)c2ccc(F)cc2F)n1 | Aspergillus fumigatus | growth, broth microdilution | 7544 | 48 h, 35 °C, ≥50% inhibition |  | MIC | > 64 mg/L |
| CC(C)CCCc1ccc2c(c1)C(=O)C(Br)=C(Br)C2=O | Leishmania infantum |  | promastigotes |  | baseline: HepG2 CC50 over promastigote EC50 | selectivity index | 1.3 |
| O=c1c(Cl)c(Cl)cnn1Cc1ccccc1Cl | Mycolicibacterium smegmatis |  | EcDsbB-dependent, 7H9 medium | 24 h |  | concentration for full growth inhibition | 400 nM |
| COc1ccc(C(=O)CSc2nnc(COCCn3c([N+](=O)[O-])cnc3C)o2)cc1F | Serratia marcescens |  | DMSO | 60 µg/mL, 24 h, 37 °C |  | inhibition zone diameter | ≥ 20 mm |
| COC1=CC(c2ccc[nH]2)=NC1=Cc1[nH]c(Cc2ccc(Cl)cc2)cc1Cc1ccc(Cl)cc1 | Plasmodium yoelii |  | Kenya strain MRA-428, mice | oral, 5 mg/kg daily for 4 days, day 5 |  | parasitaemia suppression | 90% |
| CC1(C)CC[C@]2(CO)CC[C@]3(C)C(=CC[C@@H]4[C@@]5(C)CCCNC(C)(C)[C@@H]5CC[C@]43C)[C@@H]2C1 | Human papillomavirus 11 | viral replication, luciferase reporter | C-33 A |  |  | EC90 | > 0.24 µM |
| COC1=CC(c2ccc[nH]2)=NC1=CNC1CCCCCCC1 | Plasmodium yoelii |  | Kenya strain MRA-428, mice | oral, day 5, dosed 4 days |  | ED50 | < 5 mg/kg/day |
| C[C@@H](c1ccn(Cc2ccc(F)c(F)c2)n1)[C@](O)(Cn1cnnn1)c1ccc(F)cc1F | Aspergillus fumigatus | growth, broth microdilution | 7544 | 48 h, 35 °C, ≥50% inhibition |  | MIC | 64 mg/L (≈ 143 µM) |
| CCCCCCN=Cc1[nH]c(-c2ccc[nH]2)cc1OC | Plasmodium yoelii |  | Kenya strain MRA-428, mice | oral, day 5, dosed 4 days |  | ED50 | < 5 mg/kg/day |
| C[C@H]1[C@H](C)CC[C@]2(CO)CC[C@]3(C)C(=CC[C@@H]4[C@@]5(C)CCCNC(C)(C)[C@@H]5CC[C@]43C)[C@H]12 | Human papillomavirus 11 | viral replication, luciferase reporter | C-33 A |  |  | EC90 | > 1.2 µM |
| CCc1c(C)[nH]c(C=NC23CC4CC(CC(C4)C2)C3)c1C | Plasmodium yoelii |  | Kenya strain MRA-428, mice | oral, 100 mg/kg daily for 4 days, day 5 |  | parasitaemia suppression | 100% |
| CC1(CCCCCCCCCCCCCCOCCCOP(=O)(O)CO[C@H](CO)Cn2ccc(N)nc2=O)COC1 | human gammaherpesvirus 4 | qPCR | Akata |  | baseline: CC50 over EC50 | selectivity index | > 10 |
| CC(=O)Oc1ccc(OC(C)=O)c2c1CC1=C(C2)C(C)(C)CCC1 | Leishmania infantum |  | intracellular amastigotes, ex vivo mouse splenic explants |  | baseline: HepG2 CC50 over amastigote EC50 | selectivity index | 30 |
| CC1=CC(c2ccc[nH]2)=NC1=CNC12CC3CC(CC(C3)C1)C2 | Plasmodium yoelii |  | Kenya strain MRA-428, mice | oral, day 5, dosed 4 days |  | ED50 | 20 mg/kg/day |
| O=c1c(O)cccc(Sc2cccc3ccccc23)c1O | human alphaherpesvirus 1 | plaque reduction | Vero | 1 µM |  | viral replication inhibition | inactive |
| CC(C)C[C@@H]1NC(=S)NC1=O | Trypanosoma cruzi trypomastigote |  | Y |  | baseline: LLC-MK2 CC50 over IC50 | selectivity ratio | 4.5 |

Excerpt of the above:
| Compound | organism | assay | system | conditions | scale | quantity | result |
| --- | --- | --- | --- | --- | --- | --- | --- |
| C[C@@H](c1ccn(Cc2cc(F)c(F)c(F)c2)n1)[C@](O)(Cn1cnnn1)c1ccc(F)cc1F | Aspergillus fumigatus | growth, broth microdilution | 7544 | 48 h, 35 °C, ≥50% inhibition |  | MIC | > 64 mg/L |
| CC1(C)CC[C@]2(CO)CC[C@]3(C)C(=CC[C@@H]4[C@@]5(C)CCCNC(C)(C)[C@@H]5CC[C@]43C)[C@@H]2C1 | Human papillomavirus 11 | viral replication, luciferase reporter | C-33 A |  |  | EC90 | > 0.24 µM |
| O=c1c(O)cccc(Sc2cccc3ccccc23)c1O | human alphaherpesvirus 1 | plaque reduction | Vero | 1 µM |  | viral replication inhibition | inactive |
